Measured values of several laboratories.
Lines come from different studies, so protocols differ. Numbers after ± are the reported error.
Trypanothione synthetase: Trypanothione synthetase (Trypanosoma brucei brucei, UniProt Q586P2)
plsY: Glycerol-3-phosphate acyltransferase (plsY, Streptococcus pneumoniae, UniProt P0A4Q0)
Sequence of UniProt P49841 (whole entry, looked up): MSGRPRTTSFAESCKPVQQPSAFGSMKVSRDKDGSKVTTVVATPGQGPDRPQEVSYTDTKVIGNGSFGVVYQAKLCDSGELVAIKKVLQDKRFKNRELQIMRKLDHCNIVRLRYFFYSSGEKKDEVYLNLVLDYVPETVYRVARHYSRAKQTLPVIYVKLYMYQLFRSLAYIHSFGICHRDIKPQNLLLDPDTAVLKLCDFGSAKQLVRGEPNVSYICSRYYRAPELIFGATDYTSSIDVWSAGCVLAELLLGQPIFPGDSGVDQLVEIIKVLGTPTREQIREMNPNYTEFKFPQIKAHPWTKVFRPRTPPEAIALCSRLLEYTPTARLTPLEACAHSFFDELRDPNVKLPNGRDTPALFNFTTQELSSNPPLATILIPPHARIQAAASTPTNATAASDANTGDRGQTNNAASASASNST
Sequence of UniProt Q96C10 (whole entry, looked up): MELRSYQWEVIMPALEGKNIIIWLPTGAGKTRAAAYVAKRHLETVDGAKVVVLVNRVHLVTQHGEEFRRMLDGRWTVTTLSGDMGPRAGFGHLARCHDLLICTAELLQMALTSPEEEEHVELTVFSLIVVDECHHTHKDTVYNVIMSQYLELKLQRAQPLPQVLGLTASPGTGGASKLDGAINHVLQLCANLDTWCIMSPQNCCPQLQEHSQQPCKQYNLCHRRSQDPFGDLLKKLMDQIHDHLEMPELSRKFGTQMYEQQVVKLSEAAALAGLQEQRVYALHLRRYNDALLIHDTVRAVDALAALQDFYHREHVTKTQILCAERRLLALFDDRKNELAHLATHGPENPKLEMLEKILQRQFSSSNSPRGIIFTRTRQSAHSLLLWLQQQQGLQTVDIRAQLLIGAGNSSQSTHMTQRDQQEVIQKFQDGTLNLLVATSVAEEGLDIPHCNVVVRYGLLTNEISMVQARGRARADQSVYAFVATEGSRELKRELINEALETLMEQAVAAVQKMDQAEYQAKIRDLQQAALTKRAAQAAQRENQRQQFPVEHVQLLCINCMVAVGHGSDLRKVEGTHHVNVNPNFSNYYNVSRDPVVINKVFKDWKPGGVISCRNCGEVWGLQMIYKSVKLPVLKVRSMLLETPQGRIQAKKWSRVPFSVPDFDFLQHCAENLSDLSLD
Sequence of UniProt P08588 (whole entry, looked up): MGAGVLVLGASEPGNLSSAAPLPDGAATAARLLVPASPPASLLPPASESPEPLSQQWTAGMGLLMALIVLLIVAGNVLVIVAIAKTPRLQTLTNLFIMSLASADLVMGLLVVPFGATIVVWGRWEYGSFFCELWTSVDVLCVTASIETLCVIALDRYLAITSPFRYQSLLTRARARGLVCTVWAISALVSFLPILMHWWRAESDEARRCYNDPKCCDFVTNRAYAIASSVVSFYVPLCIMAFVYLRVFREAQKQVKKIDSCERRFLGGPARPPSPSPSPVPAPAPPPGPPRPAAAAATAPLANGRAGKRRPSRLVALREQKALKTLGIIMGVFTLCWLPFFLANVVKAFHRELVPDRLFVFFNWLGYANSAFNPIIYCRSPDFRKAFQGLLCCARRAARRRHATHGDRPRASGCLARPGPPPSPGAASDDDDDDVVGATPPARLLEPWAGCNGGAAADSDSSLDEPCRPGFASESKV
Sequence of UniProt P41594 (whole entry, looked up): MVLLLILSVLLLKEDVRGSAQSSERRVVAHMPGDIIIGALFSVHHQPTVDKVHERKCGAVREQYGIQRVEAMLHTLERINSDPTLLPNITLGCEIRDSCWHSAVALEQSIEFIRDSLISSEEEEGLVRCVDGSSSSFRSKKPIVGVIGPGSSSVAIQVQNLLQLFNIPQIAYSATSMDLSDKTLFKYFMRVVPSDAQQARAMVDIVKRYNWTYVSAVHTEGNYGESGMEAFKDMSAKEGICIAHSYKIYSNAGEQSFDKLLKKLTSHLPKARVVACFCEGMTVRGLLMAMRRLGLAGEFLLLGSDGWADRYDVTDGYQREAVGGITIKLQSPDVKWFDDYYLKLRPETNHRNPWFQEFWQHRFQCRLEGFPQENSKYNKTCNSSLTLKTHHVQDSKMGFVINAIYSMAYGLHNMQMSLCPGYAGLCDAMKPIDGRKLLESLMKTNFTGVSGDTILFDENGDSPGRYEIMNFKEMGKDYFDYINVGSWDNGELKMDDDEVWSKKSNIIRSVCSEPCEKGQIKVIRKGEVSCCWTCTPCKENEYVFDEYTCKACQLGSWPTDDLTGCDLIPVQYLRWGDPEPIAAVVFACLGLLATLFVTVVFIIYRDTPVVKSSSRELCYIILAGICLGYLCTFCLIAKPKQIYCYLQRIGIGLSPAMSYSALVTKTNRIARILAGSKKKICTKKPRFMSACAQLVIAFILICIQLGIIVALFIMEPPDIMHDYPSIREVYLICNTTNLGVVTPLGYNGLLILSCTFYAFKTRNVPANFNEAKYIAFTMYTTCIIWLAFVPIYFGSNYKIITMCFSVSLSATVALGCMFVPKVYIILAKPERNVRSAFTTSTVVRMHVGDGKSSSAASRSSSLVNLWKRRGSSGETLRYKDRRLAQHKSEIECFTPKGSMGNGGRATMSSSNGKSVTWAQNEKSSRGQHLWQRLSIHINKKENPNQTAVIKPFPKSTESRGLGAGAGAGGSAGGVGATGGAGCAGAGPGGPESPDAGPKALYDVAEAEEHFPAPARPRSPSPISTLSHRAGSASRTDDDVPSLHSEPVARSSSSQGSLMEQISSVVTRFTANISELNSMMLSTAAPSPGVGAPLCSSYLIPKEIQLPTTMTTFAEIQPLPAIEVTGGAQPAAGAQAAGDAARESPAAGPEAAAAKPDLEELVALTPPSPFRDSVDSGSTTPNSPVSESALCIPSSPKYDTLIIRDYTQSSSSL
Sequence of UniProt P28221 (whole entry, looked up): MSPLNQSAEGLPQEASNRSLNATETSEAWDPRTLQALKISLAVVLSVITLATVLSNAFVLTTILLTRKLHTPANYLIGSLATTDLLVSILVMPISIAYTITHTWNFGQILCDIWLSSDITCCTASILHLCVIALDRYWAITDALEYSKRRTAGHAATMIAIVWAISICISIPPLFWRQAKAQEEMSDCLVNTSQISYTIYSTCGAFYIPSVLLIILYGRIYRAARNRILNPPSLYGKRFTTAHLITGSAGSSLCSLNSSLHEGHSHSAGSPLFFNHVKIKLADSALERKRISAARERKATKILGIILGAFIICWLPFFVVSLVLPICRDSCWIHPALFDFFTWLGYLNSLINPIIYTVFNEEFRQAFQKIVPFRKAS
Sequence of UniProt Q5XI64 (whole entry, looked up): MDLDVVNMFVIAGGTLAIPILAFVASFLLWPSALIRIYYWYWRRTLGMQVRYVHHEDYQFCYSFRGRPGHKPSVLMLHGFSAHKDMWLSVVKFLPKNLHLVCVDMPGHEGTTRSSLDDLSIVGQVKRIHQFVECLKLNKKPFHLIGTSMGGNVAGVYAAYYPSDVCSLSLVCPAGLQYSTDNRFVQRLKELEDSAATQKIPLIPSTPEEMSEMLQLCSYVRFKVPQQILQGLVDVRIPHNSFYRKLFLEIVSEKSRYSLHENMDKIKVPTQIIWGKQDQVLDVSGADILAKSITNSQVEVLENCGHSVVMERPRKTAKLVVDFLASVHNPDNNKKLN
Sequence of UniProt P41144 (whole entry, looked up): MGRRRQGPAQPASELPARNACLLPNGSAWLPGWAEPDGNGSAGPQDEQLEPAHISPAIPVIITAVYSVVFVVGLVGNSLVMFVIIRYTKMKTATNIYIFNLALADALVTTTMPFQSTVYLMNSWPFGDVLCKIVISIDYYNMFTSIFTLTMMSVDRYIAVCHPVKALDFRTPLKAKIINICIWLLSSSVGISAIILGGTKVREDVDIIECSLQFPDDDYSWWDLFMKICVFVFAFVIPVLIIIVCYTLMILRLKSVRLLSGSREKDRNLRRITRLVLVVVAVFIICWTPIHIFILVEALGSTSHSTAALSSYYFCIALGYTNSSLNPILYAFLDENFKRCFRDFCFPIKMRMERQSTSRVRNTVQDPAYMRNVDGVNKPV
Sequence of UniProt P46092 (whole entry, looked up): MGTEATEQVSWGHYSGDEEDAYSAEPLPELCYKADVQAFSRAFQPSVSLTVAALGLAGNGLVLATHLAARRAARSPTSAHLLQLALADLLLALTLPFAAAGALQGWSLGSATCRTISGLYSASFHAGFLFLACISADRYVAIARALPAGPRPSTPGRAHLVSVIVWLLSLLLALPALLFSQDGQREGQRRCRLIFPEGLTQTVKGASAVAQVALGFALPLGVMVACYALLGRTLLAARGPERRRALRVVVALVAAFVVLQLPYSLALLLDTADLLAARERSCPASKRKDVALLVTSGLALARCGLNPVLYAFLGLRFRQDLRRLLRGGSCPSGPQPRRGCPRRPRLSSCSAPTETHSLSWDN
Sequence of UniProt Q86YV6 (whole entry, looked up): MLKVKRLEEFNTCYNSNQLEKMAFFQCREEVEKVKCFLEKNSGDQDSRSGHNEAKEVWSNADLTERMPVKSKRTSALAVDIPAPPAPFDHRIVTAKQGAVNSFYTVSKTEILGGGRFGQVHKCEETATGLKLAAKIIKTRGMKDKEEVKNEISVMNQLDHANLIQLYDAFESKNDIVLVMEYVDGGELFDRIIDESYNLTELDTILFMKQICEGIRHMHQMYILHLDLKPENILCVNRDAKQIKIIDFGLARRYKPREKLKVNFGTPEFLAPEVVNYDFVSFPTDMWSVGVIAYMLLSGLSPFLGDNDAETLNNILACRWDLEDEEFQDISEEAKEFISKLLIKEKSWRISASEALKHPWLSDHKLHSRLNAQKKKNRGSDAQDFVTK
Sequence of UniProt P50897 (whole entry, looked up): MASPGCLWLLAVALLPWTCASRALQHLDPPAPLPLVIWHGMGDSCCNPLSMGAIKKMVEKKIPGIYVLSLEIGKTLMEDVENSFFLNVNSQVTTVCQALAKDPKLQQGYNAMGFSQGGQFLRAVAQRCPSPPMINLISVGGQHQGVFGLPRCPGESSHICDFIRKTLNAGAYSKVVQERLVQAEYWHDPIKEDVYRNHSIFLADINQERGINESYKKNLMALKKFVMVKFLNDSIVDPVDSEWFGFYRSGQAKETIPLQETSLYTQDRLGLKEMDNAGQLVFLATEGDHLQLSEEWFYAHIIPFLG

SMILES | target | assay | test system | conditions | inhibition [%]
CC(C)N1CCC[C@H]1CNC(=O)c1cn(C2CCCC2)c(=O)c2c1c1ccccc1n2C | Epidermal growth factor receptor (EGFR, Homo sapiens, UniProt P00533) | radioligand binding |  | 10 µM | 11
COc1ccc(N2C(=O)N(c3c(C)cccc3Cl)Cc3cnc(Nc4ccc(C5CCN(C)CC5)cc4OC)nc32)nc1 | Protein-tyrosine kinase 2-beta (PTK2B, Homo sapiens, UniProt Q14289) | kinase activity, inhibitor |  | 0.5 µM, PYK2 | 27
CCN1CCN(Cc2ccc(CNC(=O)Cc3c[nH]c4ccccc34)cc2)CC1 | Trypanothione synthetase | enzyme activity, BIOMOL Green phosphate release |  | 25 µM | 29 ± 5.1
Cc1ncc2c(n1)[C@H](C)[C@@H]1C[C@H]2[C@@](C)(O)CN1Cc1ccccc1 | Kappa-type opioid receptor (OPRK1, Cavia porcellus, UniProt P41144) | binding, radioligand binding | guinea pig brain | 1 µM, with: [3H]U-69,593 | 0
Cn1cccc1-c1cccnc1 | 5-hydroxytryptamine receptor 1D (HTR1D, Homo sapiens, UniProt P28221) | binding |  | 50 µM | -2.07
CN(CCN1CCC(OC(=O)Nc2ccccc2-c2ccccc2)CC1)C(=O)c1ccc(CN2CCC(C(N)=O)CC2)cc1 | rat NPY Y receptor non-selective | radioligand binding |  | 1 µM, with: [3H]NPY 0.5 nM | -23
CCCCCCCCCCCCCCCC(=O)C(F)(F)P(=O)(O)O | plsY | inhibitor |  | 200 µM | 99
CN(C(=O)n1cnc(-c2ccc[n+]([O-])c2)c1)C1CCCCC1 | Metabotropic glutamate receptor 5 (GRM5, Homo sapiens, UniProt P41594) | radioligand binding |  | 10 µM, with: [3H]quisqualic acid | -11
CN1CCC(c2cc(-c3ccncc3)c(-c3ccc(F)cc3)[nH]2)CC1 | cGMP-dependent protein kinase (PKG, Plasmodium falciparum, UniProt Q8I719, T618Q) |  |  | 10 µM | 16 ± 4.5
O=c1ccc2ccccc2o1 | Beta-1 adrenergic receptor (ADRB1, Homo sapiens, UniProt P08588) | agonist radioligand binding |  | 10 µM, SafetyScreen44 | 1.82
CCCCCCCCCCCC(=O)CP(=O)(O)O | plsY | inhibitor |  | 200 µM | 38
CN1CCN(c2nc(N)c3ccccc3n2)CC1 | glycine receptor (rat) | binding, radioligand binding |  | 0.1 µM, mean of two | 10.5
CN(Cc1ccccc1Br)C(=O)c1ccccc1C(=O)c1ccccc1 | Trypanothione synthetase | enzyme activity, BIOMOL Green phosphate release |  | 25 µM | 35.8 ± 3.9
CCCCCCCC(=O)NP(=O)(O)O | plsY | inhibitor |  | 200 µM | 0
CNCC(=O)c1ccc(O)c(O)c1.Cl | Palmitoyl-protein thioesterase 1 (Homo sapiens, UniProt P50897) | Spectrum Collection screen |  | concentration not given, with: substrate 20 µM | 62.7
C[C@H](C(=O)N[C@H]1COc2ccccc2[C@@H]1S(C)(=O)=O)c1ccc(F)cc1 | Glycogen synthase kinase-3 beta (GSK3B, Homo sapiens, UniProt P49841) | activity |  | 10 µM, Eurofins selectivity panel | -11

SMILES | target | assay | test system | conditions | inhibition [%]
O=C(CCCCC1CCCCC1)CP(=O)(O)O | plsY | inhibitor |  | 200 µM | 9
CCCCCn1c2ccccc2c2cc(C(=O)NCC3CCN(CC(=O)NC(C)(C)C)CC3)ccc21 | Voltage-dependent T-type calcium channel subunit alpha-1H (CACNA1H, Homo sapiens, UniProt O95180) | calcium current, whole-cell patch clamp | tsA201 (hCav3.2 transfected) | 3 µM | 69.3 ± 4
Cc1[nH]c2ccc(C(=O)N3CCN(S(=O)(=O)c4ccc(Cl)s4)CC3)cc2c1C | Trypanothione synthetase | enzyme activity, BIOMOL Green phosphate release |  | 25 µM | 7.2 ± 3
Cc1ncc(C)n2nc(/C=C/c3nc(N4CCCC4)cc(N4CCOCC4)n3)nc12 | L-type calcium channel diltiazem site | radioligand binding |  | 10 µM | -56
COCc1c(-c2cc3cc(C)cc(OC)c3s2)c2c(N)ncnn2c1CN1CCNC(=O)C1 | adenosine transporter | radioligand binding |  | 10 µM | 41
O=C(Nc1cccnn1)N1CCC(=Cc2cccc(Oc3ccc(C(F)(F)F)cn3)c2)CC1 | GABAB1B receptor, human | binding |  | 50 µM, with: [3H]CGP-54626 | 13
COc1cc2c(NC3CCN(C)CC3)cc(-c3ccc(C)o3)nc2cc1OCCCN1CCCC1 | DNA (cytosine-5)-methyltransferase 1 (DNMT1, Homo sapiens, UniProt P26358) | enzyme activity |  | 11110 nM | 82.2
Cc1[nH]ncc1S(=O)(=O)NCc1cccc(-n2cccn2)c1 | Trypanothione synthetase | enzyme activity, BIOMOL Green phosphate release |  | 25 µM | 40 ± 5.8
O=C(Nc1cnccc1Cl)N1CCN(Cc2ccc3c(c2)OC(F)(F)O3)CC1 | Monoacylglycerol lipase ABHD6 (Abhd6, Rattus norvegicus, UniProt Q5XI64) | probe labelling, inhibitor, competitive ABPP with azido-FP probe, item: ABHD6 | rat brain membrane fraction | 1 µM | 6.6
O=C(Nc1ccncc1)C1CCN(C(=O)Cc2c[nH]c3ccccc23)CC1 | Trypanothione synthetase | enzyme activity, BIOMOL Green phosphate release |  | 25 µM | 12.7 ± 9.8
COc1cc(Nc2ncc(F)c(Nc3ccc4c(n3)NC(=O)C(C)(C)O4)n2)cc(OC)c1OC | Myosin light chain kinase family member 4 (MYLK4, Homo sapiens, UniProt Q86YV6) | KINOMEscan |  | 10 µM | 84
CN1CCN(c2cc(-c3ccncc3)c(-c3ccc4ccccc4c3)nn2)CC1 | C-C chemokine receptor type 10 (CCR10, Homo sapiens, UniProt P46092) | antagonist, FLIPR |  | 10 µM | 2.6
NCc1cc(=O)[nH]o1 | GABA-A receptor agonist site (rat) | radioligand binding | rat brain | 1×10 µM | 94.3
O=C(CCCCc1ccccc1)CP(=O)(O)O | plsY | inhibitor |  | 200 µM | 6
O=C(N1CCC2(CC1)C[C@@H](CN1CCCCS1(=O)=O)CCO2)C1(c2ccccc2)CCCC1 | DHX58 (Homo sapiens, UniProt Q96C10) | ATPase activity, inhibitor |  | 50 µM | 10
FC(F)(F)c1cccc(Nc2nc(NCCOc3ccccc3)nc3[nH]cnc23)c1 | Cyclin-dependent kinase 2, with cyclin A (CDK2, Homo sapiens, UniProt P24941) | Z'-LYTE or Adapta |  | 5 µM | 6

Excerpt of the above:
SMILES | target | assay | test system | conditions | inhibition [%]
CN(C(=O)n1cnc(-c2ccc[n+]([O-])c2)c1)C1CCCCC1 | Metabotropic glutamate receptor 5 (GRM5, Homo sapiens, UniProt P41594) | radioligand binding |  | 10 µM, with: [3H]quisqualic acid | -11
CN1CCC(c2cc(-c3ccncc3)c(-c3ccc(F)cc3)[nH]2)CC1 | cGMP-dependent protein kinase (PKG, Plasmodium falciparum, UniProt Q8I719, T618Q) |  |  | 10 µM | 16 ± 4.5
